# Measured values of several laboratories.
# Compare with care: the assays were run in different laboratories. ± gives the spread as reported.
# Ugcg: Ceramide glucosyltransferase (Ugcg, Mus musculus, UniProt O88693)
# RAD52: DNA repair protein RAD52 homolog (RAD52, Homo sapiens, UniProt P43351)
# DRD3: D(3) dopamine receptor (DRD3, Homo sapiens, UniProt P35462)
# AURKA: Aurora kinase A (AURKA, Homo sapiens, UniProt O14965)
SMILES,target or system,assay,test system,conditions,quantity,value
Nc1ncc2c(n1)-c1c([nH]c3ccc(C4=CCOCC4)cc13)CCC2,"CLK2 (Homo sapiens, UniProt P49760)","target engagement in cells, BRET",,,IC50,3.2 µM
COc1ccc(-c2ccc(C3CCCCC3)cc2)cc1OC,,hepatocyte stability,cryopreserved human hepatocytes,1 µM,hepatic clearance,6.2 mL/min/kg
OC[C@@H]1[C@@H](O)[C@H](O)[C@@H](O)CN1CCCCCOCc1ccc(-c2ccc(F)nc2)cc1,Ugcg,"enzyme activity, inhibitor, fluorescence",,,IC50,0.75 µM
Cc1ccc(Nc2cc(NC3CC3)n3ncc(C#N)c3n2)cc1NC(=O)C1CC1,"CSNK2A2 (Homo sapiens, UniProt P19784)",inhibitor,,,IC50,0.12 µM
COc1cc(F)c(-c2cc(Cn3cnc4c(N)ncnc43)c(N3CCC[C@](N)([C@H](O)C(F)F)C3)cn2)cc1F,"SUV39H2 (Homo sapiens, UniProt Q9H5I1)","enzyme activity, inhibitor",,single data points,IC50,5.93 µM
CC(=O)OC[C@H](COc1ccc(C(C)(C)c2ccc(OC[C@@H](CCl)OC(C)=O)cc2)cc1)OC(C)=O,"Androgen receptor (AR, Homo sapiens, UniProt P10275)","antagonist, nuclear translocation",,top concentration 10 µM,IC50,> 10 µM
CCCCCOCCCCCN1C[C@H](O)[C@@H](O)[C@H](O)[C@H]1CO,Ugcg,"enzyme activity, inhibitor, fluorescence",,,IC50,2 µM
CCn1nc(Cl)c2c1-c1cnc(N)c(c1)O[C@H](C)c1cc(F)ccc1-c1nn(C)cc1C2,"ALK (Homo sapiens, UniProt Q9UM73, I1171T)","enzyme activity, inhibitor",,together with: 1 mM ATP,IC50,0.0036 µM
CCCCc1nc2c([nH]1)[C@H](O)[C@@H](O)[C@H](O)[C@H]2O,sweet almond β-glucosidase,inhibitor,,"30 min, pH 6.8, together with: p-nitrophenyl β-D-glucopyranoside",IC50,0.35 µM
N#CCNC(=O)c1ccc([C@H]2[C@@H](F)[C@@H](F)C[C@@H](F)[C@H]2F)cc1,,liver microsome stability,human liver microsomes,"1 µM, without NADPH",hepatic clearance,3.9 mL/min/kg
OC[C@@H]1[C@@H](O)[C@H](O)[C@@H](O)CN1CCCCCOCCC12CC3CC(CC(C3)C1)C2,Ugcg,"enzyme activity, inhibitor, fluorescence",,,IC50,5 µM
CNCc1ccc2c(c1)N(C(=O)OCc1c(F)c(F)c(F)c(F)c1F)[C@H](CNC(=N)N)[C@H]2NC(=O)C(=O)Nc1ccc(Cl)c(F)c1,"env (Human immunodeficiency virus 1, UniProt Q2N0S5)",HIV-1 infection,Cf2Th-CD4/CCR5 cells,48 h,IC50,15.7 µM
OC[C@@H]1[C@@H](O)[C@H](O)[C@@H](O)CN1CC(F)(F)CCCOCc1ccc(-c2ccccc2)cc1,Ugcg,"enzyme activity, inhibitor, fluorescence",,,IC50,1.25 µM
COc1cc(O)cc2c1C1(CCC(=O)CC1)CC2,"Si (Rattus norvegicus, UniProt P23739)","enzyme activity, inhibitor, absorbance",,,IC50,1540 µM
COCC1CN(C2CCN(c3cc(OC)c(Nc4ncc(Br)c(Nc5ccc6c(c5P(C)(C)=O)OCCO6)n4)cc3C)CC2)C1,"EGFR (Homo sapiens, UniProt P00533, L858R/T790M)","enzyme activity, inhibitor, TR-FRET",,,IC50,0.00035 µM
CN1CCN(CCCNC(=O)c2cc3c(-c4ccc(Cl)cc4)nn(C)c3s2)CC1,RAD52,D-loop formation,,together with: RAD52 450 nM,IC50,2.7 ± 0.35 µM
Cc1[nH]c(C)c(S(=O)(=O)Nc2cccc(Cl)c2)c1C(=O)N1CCCC1,DRD3,"β-arrestin recruitment, antagonist",,,IC50,21 µM
C=CC(=O)Nc1cc(Nc2ncnc(Nc3ccccc3C(C)(C)O)n2)c(OC)cc1N(C)CCN(C)C,"EGFR (Homo sapiens, UniProt P00533)","EGFR phosphorylation, inhibitor",A-431,,IC50,0.0063 µM
Cn1nc(-c2ccc(Cl)cc2)c2cc(C(=O)NCCCN3CCCC3)sc21,RAD52,"ssDNA annealing, fluorescence quenching",,,IC50,3.5 µM
CC(C)=CCC/C(C)=C/CC/C(C)=C/CN1C[C@@H](O)[C@H](O)[C@H](O)[C@@H]1CO,Ugcg,"enzyme activity, inhibitor, fluorescence",,,IC50,1.94 µM
CCN(CC)CC(=O)Nc1cccc(-n2cc(-c3ccc4ccc(-c5cn(-c6cccc(NC(=O)CN(CC)CC)c6)nn5)cc4c3)nn2)c1,AURKA,"enzyme activity, inhibitor",,,IC50,> 10 µM
Cc1nn(-c2cccc(N)c2)c(=O)c2cnc(Nc3ccc(N4CCNCC4)cc3)nc12,"PRKD3 (Homo sapiens, UniProt O94806)","enzyme activity, inhibitor",,,IC50,> 10 µM
NS(=O)(=O)c1cc2c(cc1Cl)NC(CC1CCCC1)NS2(=O)=O (stereo not drawn),"ALDH1B1 (Homo sapiens, UniProt P30837)","enzyme activity, inhibitor",,,IC50,0.81 µM
Fc1ccc(Nc2nc(NC3CCCCC3)c3ccccc3n2)cc1F,"ADRB2 (Homo sapiens, UniProt P07550, T164V)","β-arrestin2 recruitment, antagonist, BRET",HEK293,"mutant T164V, together with: isoprenaline 1 µM",IC50,2.51 µM
Cc1cc(C)c(S(=O)(=O)N(CC(=O)O)c2ccc(Nc3ccnc(N4CCCC4)n3)cc2)c(C)c1,AURKA,"enzyme activity, inhibitor",,,IC50,> 100 µM
Cc1ccc(-c2nc(C(=O)NCCCN3CCOCC3)cc3c2[nH]c2ccccc23)cc1,RAD52,D-loop formation,,together with: RAD52 450 nM,IC50,4.3 ± 0.35 µM
Cc1cc(NC2CCN(C)CC2)ccc1-c1cc2c(N3CCC[C@H](C(=O)NCc4ccc(OC(F)(F)F)cc4)C3)ncnc2[nH]1,"CAMK2A (Homo sapiens, UniProt Q9UQM7)","enzyme activity, inhibitor, mobility shift",,,IC50,5.31 µM
CCCCOCCCCCN1C[C@H](O)[C@@H](O)[C@H](O)[C@@H]1CO,Ugcg,"enzyme activity, inhibitor, fluorescence",,,IC50,2 µM
Cc1ccc(NS(=O)(=O)c2c(C(=O)N3CCCC3)c(C)n(C)c2C)cc1Cl,DRD3,"Go activation, antagonist, BRET",,together with: dopamine,IC50,14 ± 3.8 µM
Nc1ncc(-c2cc(-c3cnn(CC(F)(F)F)c3)ncc2F)nc1C(=O)NC1CNCC(F)C1 (stereo not drawn),"CHEK2 (Homo sapiens, UniProt O96017)","enzyme activity, inhibitor, radiometric",,,IC50,0.00906 µM
Cc1sc2nc(CN(Cc3ccccc3Cl)c3ccc4[nH]c(=O)[nH]c4c3)[nH]c(=O)c2c1C,"PLA2G4A (Homo sapiens, UniProt P47712)","enzyme activity, inhibitor, fluorescence",,,IC50,8.3 µM
NC(=O)c1ccc(C(=O)NOCc2ccc(Sc3cccc(Cl)c3)c(C(F)(F)F)c2)cc1,"Cytochrome P450 2B6 (CYP2B6, Homo sapiens, UniProt P20813)",,pooled human liver microsomes,20 min,IC50,> 30 µM
N#Cc1ccc(-c2ccc(COCCCCCN3C[C@H](O)[C@@H](O)[C@H](O)[C@H]3CO)cc2)cc1,Ugcg,"enzyme activity, inhibitor, fluorescence",,,IC50,0.15 µM
COc1cc(NC(=O)c2ccc([N+](=O)[O-])cc2)ccc1NC(=O)c1ccc([N+](=O)[O-])cc1,"Apelin receptor (APLNR, Homo sapiens, UniProt P35414)","β-arrestin recruitment, antagonist",,,IC50,9.5 µM
OC[C@H]1[C@@H](O)[C@H](O)[C@@H](O)CN1CCCCCOCc1ccc(-c2ccccc2)c(F)c1,Ugcg,"enzyme activity, inhibitor, fluorescence",,,IC50,0.0025 µM
COc1ccc(NC(=O)c2cnn(-c3ccc([N+](=O)[O-])cc3)c2C(F)(F)F)cc1OC,"PTGS2 (Homo sapiens, UniProt P35354)","enzyme activity, inhibitor",,,IC50,4.92 µM

# A few entries again:
SMILES,target or system,assay,test system,conditions,quantity,value
CN1CCN(CCCNC(=O)c2cc3c(-c4ccc(Cl)cc4)nn(C)c3s2)CC1,RAD52,D-loop formation,,together with: RAD52 450 nM,IC50,2.7 ± 0.35 µM
COc1cc(O)cc2c1C1(CCC(=O)CC1)CC2,"Si (Rattus norvegicus, UniProt P23739)","enzyme activity, inhibitor, absorbance",,,IC50,1540 µM
CCCCCOCCCCCN1C[C@H](O)[C@@H](O)[C@H](O)[C@H]1CO,Ugcg,"enzyme activity, inhibitor, fluorescence",,,IC50,2 µM
N#CCNC(=O)c1ccc([C@H]2[C@@H](F)[C@@H](F)C[C@@H](F)[C@H]2F)cc1,,liver microsome stability,human liver microsomes,"1 µM, without NADPH",hepatic clearance,3.9 mL/min/kg
Cc1ccc(NS(=O)(=O)c2c(C(=O)N3CCCC3)c(C)n(C)c2C)cc1Cl,DRD3,"Go activation, antagonist, BRET",,together with: dopamine,IC50,14 ± 3.8 µM
